Assay results from different studies.
A part holds a random share of what one study measured.

Sample 1
Target: Replicase polyprotein 1ab, main protease (rep, Severe acute respiratory syndrome coronavirus 2, UniProt P0DTD1)
Effect on: enzyme activity
Mode: inhibitor
CC(=O)O/N=C1/C(=O)N(Cc2cc(Cl)ccc2Cl)c2ccc(Cl)cc21 gave an IC50 of 13.2 µM.
With COc1ccc(C(=O)n2nc(-c3ccccc3)nc2N)cc1OC the IC50 was over 20 µM.
The IC50 of S=C=Nc1cccc(NC(=S)NCCCCNC(=S)Nc2cccc(N=C=S)c2)c1 is reported as over 20 µM.
The IC50 of CNC[C@H](O)c1ccc(O)c(O)c1 is reported as over 20 µM.
For CCC1=C[C@@H]2CN(C1)Cc1c([nH]c3ccccc13)[C@@](C(=O)OC)(c1cc3c(cc1OC)N(C)[C@H]1[C@@](O)(C(=O)OC)[C@H](OC(C)=O)[C@]4(CC)C=CCN5CC[C@]31[C@@H]54)C2, the IC50 was over 20 µM.

Sample 2
Organism: Vesicular stomatitis virus
Effect on: pseudovirus infection
Technique: FDA-approved drug library screen
Concentration: concentration not given
Setting: SARS-CoV-2 spike pseudotype
Baseline: vehicle
O=C([O-])c1cc(/N=N/c2ccc(O)c(C(=O)[O-])c2)ccc1O.[Na+].[Na+] has a GFP-positive cells of 63.2%.
For COc1ccc2[n-]c([S@@+]([O-])Cc3ncc(C)c(OC)c3C)nc2c1.[Na+], the GFP-positive cells was 93.2%.
With C[C@]12C=CC(=O)C=C1CC[C@@H]1[C@@H]2[C@@H](O)C[C@@]2(C)[C@H]1CC[C@]2(O)C(=O)COP(=O)([O-])[O-].[Na+].[Na+] the GFP-positive cells was 77.8%.
For Cl.NCC(=O)CCC(=O)O, the GFP-positive cells was 91.7%.

Sample 3
Target: Interferon regulatory factor 3, full length, phosphomimetic (IRF3, Homo sapiens, UniProt Q14653, residues 1-427, S386D/S396D/S398D/S402D/T404D/S405D)
UniProt Q14653, sequence (whole entry, unmodified, looked up): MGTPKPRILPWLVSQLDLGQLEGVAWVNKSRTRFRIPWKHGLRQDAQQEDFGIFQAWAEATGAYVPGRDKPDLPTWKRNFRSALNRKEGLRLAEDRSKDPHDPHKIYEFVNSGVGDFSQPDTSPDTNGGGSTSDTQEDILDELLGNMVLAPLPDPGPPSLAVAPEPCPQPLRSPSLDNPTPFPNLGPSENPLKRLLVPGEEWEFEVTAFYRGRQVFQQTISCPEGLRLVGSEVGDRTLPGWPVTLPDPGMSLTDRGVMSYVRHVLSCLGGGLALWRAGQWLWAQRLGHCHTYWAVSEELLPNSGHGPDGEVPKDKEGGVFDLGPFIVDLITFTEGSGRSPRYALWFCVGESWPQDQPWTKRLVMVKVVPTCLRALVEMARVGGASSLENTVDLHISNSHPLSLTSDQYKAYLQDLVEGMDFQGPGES
Technique: protein-binding microarray
Molecule type: double-stranded DNA, one strand shown
Medium: in vitro
Concentration: 2540 nM top
Setting: 60-bp whole probe
Together with: salmon DNA 0.4 mg/ml
Baseline: random background probes
Direction: higher = stronger binding
Constant ends, left off below: GCCTAGCAC … GTCTTGATTCGCTTGACGCTGCTG
Under “fitted relative affinity”, `AAACCTATAGGGCCTGACTTCGTGCTA` is recorded as -0.209 z-score.
Under “fitted relative affinity”, `TTAGGTTCCGTTTTCCTTTAGTGCTAG` is recorded as 7.44 z-score.
`TAAGATTTCAGTTTCGATTAGTGCTAG`: “fitted relative affinity” 6.05 z-score.
For `GACGCTCTCGGTTTCGGGACGTGCTAG`, “fitted relative affinity” read 2.89 z-score.
For `GACGATATCAGTTTCGAAACGTGCTAG`, “fitted relative affinity” read 4.6 z-score.
Under “fitted relative affinity”, `CCAGACTGCAGAGCAAGATCGTGCTAG` is recorded as -0.288 z-score.
For `TCACCCCTTGCTTTCCAACTGTGCTAG`, “fitted relative affinity” read 1.12 z-score.
For `GCTATTTTTAGGATGGGCTAGTGCTAG`, “fitted relative affinity” read 0.498 z-score.

Sample 4
Target: Histone acetyltransferase KAT6A, winged helix 1, GST fusion (KAT6A, Homo sapiens, UniProt Q92794, residues 1-85)
Technique: protein binding microarray
Molecule type: double-stranded DNA, one strand shown
Medium: in vitro
Concentration: not given
Setting: 8-mer, flanks averaged, mean of 2 arrays, mostly near background
Baseline: not given
Direction: higher = stronger binding
Target sequence (chain): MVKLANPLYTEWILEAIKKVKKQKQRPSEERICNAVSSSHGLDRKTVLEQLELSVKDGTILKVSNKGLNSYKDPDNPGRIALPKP
With `CTCGTCAG` the E-score was -0.159.
With `ACCAGACC` the E-score was -0.0516.
With `AATTGTTA` the E-score was -0.0784.
The E-score of `TATCATAA` is reported as -0.119.
For `CGGCGTGC`, the E-score was 0.367.
For `CGGCGTAG`, the E-score was 0.278.
The E-score of `ACGCATTA` is reported as 0.09.
`ACCGGAAT` has an E-score of 0.102.

Sample 5
Target: Replicase polyprotein 1ab, polymerase (rep, Severe acute respiratory syndrome coronavirus 2, UniProt P0DTD1)
Effect on: enzyme activity
Mode: inhibitor
Concentration: 20 µM
The inhibition of C=CC(=O)Nc1cccc(Nc2nc(Nc3ccc(Oc4ccnc(C(=O)NC)c4)cc3)ncc2F)c1 is reported as 1.08%.
With NC1=N[C@@]2(c3cc(NC(=O)c4ccc(F)cn4)ccc3F)COC[C@H]2CS1 the inhibition was -5.51%.
CC(=O)O[C@]1(C(C)=O)CC[C@H]2[C@@H]3C[C@H](C)C4=CC(=O)CC[C@]4(C)[C@H]3CC[C@@]21C has an inhibition of 18.2%.
The inhibition of OC(c1ccc(-c2ccc(CN3CCN(Cc4ccncc4)CC3)cc2)c(F)c1)(C(F)(F)F)C(F)(F)F is reported as -0.02%.
The inhibition of CCCCCCCCCCCCCCCCCCOP(=O)([O-])OC1CC[N+](C)(C)CC1 is reported as -7.57%.
O=C(O)C[C@H]1CC[C@H](c2ccc(NC(=O)c3nnc(Nc4ccc(F)c(F)c4)o3)cc2)CC1 has an inhibition of 2.92%.
NCCC[C@H](N)C(=O)O has an inhibition of -19.1%.
The inhibition of CCN(CC)S(=O)(=O)c1ccc(C(=O)O)cc1 is reported as -7.6%.
The inhibition of CCOC(=O)Nc1ccc(NCc2ccc(F)cc2)cc1N is reported as -6.21%.
CCC(=O)N1CCOc2c(cc(-c3ccc(OC)c(OC)c3)cc2OC[C@H]2CCCN(C)C2)C1 gave an inhibition of -2.65%.
COc1c2ccoc2cc2oc(=O)ccc12 gave an inhibition of -3.19%.
With O=C(O)Cn1nnc(-c2cc(N3CCC(Oc4cc(F)ccc4Br)CC3)no2)n1 the inhibition was -2.09%.
For COC(=O)[C@H](NC(=O)c1cc(-c2ccccc2)nc2ccccc12)c1ccccc1, the inhibition was 2.58%.
The inhibition of C[C@@H](N[C@H]1CCCC[C@@H]1NC(=O)c1ccc(Cl)cc1)c1cccc2ccccc12 is reported as -1.07%.
With Oc1ccc(Nc2nc(-c3ccc(Cl)cc3)cs2)cc1 the inhibition was -2.28%.
C=CCN1CCc2cc(O)c(O)cc2C(c2ccccc2)C1 (centres unmarked) gave an inhibition of 1.82%.
For Nc1ncnc2c1c(-c1cccc(OCc3ccccc3)c1)cn2[C@H]1C[C@@H](CN2CCC2)C1, the inhibition was 1.62%.
The inhibition of Cc1cc(C)cc(C(=O)N(C)[C@H](Cc2ccc(-c3ccccc3)cc2)C(=O)N[C@@H](Cc2c[nH]c3ccccc23)C(=O)O)c1 is reported as 3.57%.
CC=CC1=C(C(=O)O)N2C(=O)[C@@H](NC(=O)[C@H](N)c3ccc(O)cc3)[C@H]2SC1 gave an inhibition of 1.52%.
The inhibition of CCCNC(=O)NS(=O)(=O)c1ccc(Cl)cc1 is reported as -0.46%.
For CCCCC(=O)O[C@H]1CC[C@H]2[C@@H]3CCc4cc(O)ccc4[C@H]3CC[C@]12C, the inhibition was 7.44%.
For OC(CN1CCC(Cc2ccc(F)cc2)CC1)c1ccc(Cl)cc1 (centres unmarked), the inhibition was -4.26%.
Cc1ccccc1/N=N/c1ccc(/N=N/c2c(O)ccc3ccccc23)c(C)c1 has an inhibition of 2.59%.
Cc1nnsc1C(=O)Nc1ccc(-n2nc(C(F)(F)F)cc2C(F)(F)F)cc1 has an inhibition of -5.15%.
The inhibition of O=C(NCc1ccc2c(c1)OCO2)c1c(Cl)cccc1Cl is reported as 2.12%.

Repeated from above (sample 5):
NCCC[C@H](N)C(=O)O has an inhibition of -19.1%.
The inhibition of CCN(CC)S(=O)(=O)c1ccc(C(=O)O)cc1 is reported as -7.6%.
The inhibition of CCOC(=O)Nc1ccc(NCc2ccc(F)cc2)cc1N is reported as -6.21%.
CCC(=O)N1CCOc2c(cc(-c3ccc(OC)c(OC)c3)cc2OC[C@H]2CCCN(C)C2)C1 gave an inhibition of -2.65%.
COc1c2ccoc2cc2oc(=O)ccc12 gave an inhibition of -3.19%.
With O=C(O)Cn1nnc(-c2cc(N3CCC(Oc4cc(F)ccc4Br)CC3)no2)n1 the inhibition was -2.09%.
For COC(=O)[C@H](NC(=O)c1cc(-c2ccccc2)nc2ccccc12)c1ccccc1, the inhibition was 2.58%.
The inhibition of C[C@@H](N[C@H]1CCCC[C@@H]1NC(=O)c1ccc(Cl)cc1)c1cccc2ccccc12 is reported as -1.07%.
